Results from different studies.
Numbered parts are unrelated; each lists some results of a single study.

Block 1 — technique: protein binding microarray; molecule type: double-stranded DNA, one strand shown; matrix: in vitro; concentration: not given; baseline: not given; direction: higher = stronger binding
Target: Histone acetyltransferase KAT6A, winged helix 1, GST fusion (KAT6A, Homo sapiens, UniProt Q92794, residues 1-85)
Notes: 8-mer, flanks averaged, mean of 2 arrays, mostly near background
Residues (chain): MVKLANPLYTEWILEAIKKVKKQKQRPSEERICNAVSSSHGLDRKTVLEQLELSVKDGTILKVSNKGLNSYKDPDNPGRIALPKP
Strand	E-score
CTGCGCCC	0.227
AAAGGCGA	-0.0522
AATCCCCG	0.224

Block 2 — technique: universal PBM; molecule type: double-stranded DNA, one strand shown; matrix: in vitro; concentration: 600 nM; direction: higher = stronger binding
Target: Sal-like protein 4, full length isoform A (SALL4, Homo sapiens, UniProt Q9UJQ4, residues 1-1053)
Sequence of UniProt Q9UJQ4 (whole entry, looked up): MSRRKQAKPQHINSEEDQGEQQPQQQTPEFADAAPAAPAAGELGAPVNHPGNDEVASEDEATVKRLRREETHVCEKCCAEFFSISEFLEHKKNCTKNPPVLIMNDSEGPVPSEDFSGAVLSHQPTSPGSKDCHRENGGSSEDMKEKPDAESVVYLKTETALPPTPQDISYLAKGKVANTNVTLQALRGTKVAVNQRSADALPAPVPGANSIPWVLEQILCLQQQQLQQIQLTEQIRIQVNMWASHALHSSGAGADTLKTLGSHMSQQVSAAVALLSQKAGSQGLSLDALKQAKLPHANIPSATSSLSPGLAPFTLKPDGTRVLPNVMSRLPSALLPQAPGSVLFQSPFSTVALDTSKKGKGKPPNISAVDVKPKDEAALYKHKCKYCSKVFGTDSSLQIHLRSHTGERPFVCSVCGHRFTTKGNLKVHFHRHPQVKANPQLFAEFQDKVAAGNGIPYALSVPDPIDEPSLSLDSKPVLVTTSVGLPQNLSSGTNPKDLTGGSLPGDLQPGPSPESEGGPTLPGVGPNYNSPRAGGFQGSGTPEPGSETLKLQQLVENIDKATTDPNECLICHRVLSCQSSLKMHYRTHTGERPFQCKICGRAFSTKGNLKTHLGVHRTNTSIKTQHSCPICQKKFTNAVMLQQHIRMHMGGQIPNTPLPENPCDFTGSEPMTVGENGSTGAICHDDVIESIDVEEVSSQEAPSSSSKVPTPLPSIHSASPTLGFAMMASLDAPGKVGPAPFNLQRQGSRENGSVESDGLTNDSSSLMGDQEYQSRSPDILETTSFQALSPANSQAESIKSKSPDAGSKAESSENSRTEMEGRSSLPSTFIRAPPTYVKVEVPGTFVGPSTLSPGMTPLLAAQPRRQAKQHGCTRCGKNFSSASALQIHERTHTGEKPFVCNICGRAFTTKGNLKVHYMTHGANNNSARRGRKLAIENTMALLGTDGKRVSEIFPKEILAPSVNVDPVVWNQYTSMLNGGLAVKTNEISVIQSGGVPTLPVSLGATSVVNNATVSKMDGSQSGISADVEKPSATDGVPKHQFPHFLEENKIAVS
Notes: 8-mer, flanks averaged, mean of replicates
Strand	E-score
GAAAATAA	0.354
CCATACTA	0.256
GCCATCAC	-0.103
TAACAGGA	0.149

Other studies, line by line
PHO4 full length, GST-tagged: Phosphate system positive regulatory protein PHO4, full length, GST-tagged (PHO4, Saccharomyces cerevisiae, UniProt P07270, residues 1-312)
Sequence of UniProt P07270 (whole entry, looked up): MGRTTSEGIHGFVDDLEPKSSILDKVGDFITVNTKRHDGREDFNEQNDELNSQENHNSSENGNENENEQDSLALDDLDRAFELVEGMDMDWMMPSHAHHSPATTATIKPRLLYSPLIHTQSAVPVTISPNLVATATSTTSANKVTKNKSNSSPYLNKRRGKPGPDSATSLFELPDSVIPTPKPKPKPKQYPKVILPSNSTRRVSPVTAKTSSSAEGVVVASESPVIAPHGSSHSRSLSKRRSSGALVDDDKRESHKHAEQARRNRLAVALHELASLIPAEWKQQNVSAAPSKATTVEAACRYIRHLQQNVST
Molecule	target	assay	system	conditions	scale	measurement	value
GTCTTGTCTCATTGTCACTAAACTTTCCCCACTTCAGTCTTGATTCGCTTGACGCTGCTG	PHO4 full length, GST-tagged	competition protein-binding microarray	double-stranded DNA, one strand shown, in vitro	2 µM, whole 60-bp probe, lowest competitor level, added: Cbf1 competitor, 0.05 µM	higher = stronger binding	fluorescence intensity	3960 a.u.
PhoQ, residues 284 288 289 292 302 303 GNNTDL	PhoP, residues 12 14 15 18 19 LHSVW (Escherichia coli, UniProt P23836)	Sort-seq, refers to: YFP reporter	E. coli	PhoQ-PhoP variant library, added: 10 µM Mg2+	baseline: high Mg2+ state, higher = stronger signaling	fold induction	1.78
TGCGCAACAACTTGCAACGTGGGTGTATGTCTAGAAGTCTTGATTCGCTTGACGCTGCTG	PHO4 full length, GST-tagged	competition protein-binding microarray	double-stranded DNA, one strand shown, in vitro	2 µM, whole 60-bp probe, lowest competitor level, added: Cbf1 competitor, 0.05 µM	higher = stronger binding	fluorescence intensity	13900 a.u.
CTAACGAAGGTTTTGCACGTGTTTTACAAGCCAAGTGTCTTGATTCGCTTGACGCTGCTG	PHO4 full length, GST-tagged	competition protein-binding microarray	double-stranded DNA, one strand shown, in vitro	2 µM, whole 60-bp probe, lowest competitor level, added: Cbf1 competitor, 0.05 µM	higher = stronger binding	fluorescence intensity	18500 a.u.

For quick reference, copied from above (other studies, line by line):
Molecule	target	assay	system	conditions	scale	measurement	value
PhoQ, residues 284 288 289 292 302 303 GNNTDL	PhoP, residues 12 14 15 18 19 LHSVW (Escherichia coli, UniProt P23836)	Sort-seq, refers to: YFP reporter	E. coli	PhoQ-PhoP variant library, added: 10 µM Mg2+	baseline: high Mg2+ state, higher = stronger signaling	fold induction	1.78
